Results pooled from the literature.
A part holds a random share of what one study measured.
UniProt P08913, sequence (whole entry, looked up): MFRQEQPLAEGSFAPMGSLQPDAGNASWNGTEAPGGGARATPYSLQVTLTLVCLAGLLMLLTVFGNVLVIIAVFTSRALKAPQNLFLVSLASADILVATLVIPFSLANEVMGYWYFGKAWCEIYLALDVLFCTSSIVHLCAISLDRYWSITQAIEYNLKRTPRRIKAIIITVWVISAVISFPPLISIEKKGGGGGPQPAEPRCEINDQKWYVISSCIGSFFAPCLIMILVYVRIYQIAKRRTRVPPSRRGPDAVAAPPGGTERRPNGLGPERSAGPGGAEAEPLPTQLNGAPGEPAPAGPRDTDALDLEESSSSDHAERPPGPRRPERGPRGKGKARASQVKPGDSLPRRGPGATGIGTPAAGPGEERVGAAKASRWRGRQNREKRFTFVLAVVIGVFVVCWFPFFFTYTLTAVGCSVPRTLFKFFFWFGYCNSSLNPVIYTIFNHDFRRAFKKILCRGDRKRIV
UniProt Q8CE90, sequence (whole entry, looked up): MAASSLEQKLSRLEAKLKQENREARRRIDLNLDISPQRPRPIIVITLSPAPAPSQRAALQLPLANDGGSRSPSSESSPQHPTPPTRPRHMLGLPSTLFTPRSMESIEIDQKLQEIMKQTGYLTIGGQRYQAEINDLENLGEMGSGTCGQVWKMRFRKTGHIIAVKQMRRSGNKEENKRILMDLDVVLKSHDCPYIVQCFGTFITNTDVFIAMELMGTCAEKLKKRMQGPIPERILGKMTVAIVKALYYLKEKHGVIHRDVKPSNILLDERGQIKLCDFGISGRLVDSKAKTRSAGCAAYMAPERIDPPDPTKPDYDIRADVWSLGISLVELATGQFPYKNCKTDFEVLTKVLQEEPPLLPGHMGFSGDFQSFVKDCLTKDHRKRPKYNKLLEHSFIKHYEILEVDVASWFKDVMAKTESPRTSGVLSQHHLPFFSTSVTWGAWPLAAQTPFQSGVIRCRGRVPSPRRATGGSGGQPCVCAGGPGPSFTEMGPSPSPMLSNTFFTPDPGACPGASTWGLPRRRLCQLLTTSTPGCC
UniProt P18089, sequence (whole entry, looked up): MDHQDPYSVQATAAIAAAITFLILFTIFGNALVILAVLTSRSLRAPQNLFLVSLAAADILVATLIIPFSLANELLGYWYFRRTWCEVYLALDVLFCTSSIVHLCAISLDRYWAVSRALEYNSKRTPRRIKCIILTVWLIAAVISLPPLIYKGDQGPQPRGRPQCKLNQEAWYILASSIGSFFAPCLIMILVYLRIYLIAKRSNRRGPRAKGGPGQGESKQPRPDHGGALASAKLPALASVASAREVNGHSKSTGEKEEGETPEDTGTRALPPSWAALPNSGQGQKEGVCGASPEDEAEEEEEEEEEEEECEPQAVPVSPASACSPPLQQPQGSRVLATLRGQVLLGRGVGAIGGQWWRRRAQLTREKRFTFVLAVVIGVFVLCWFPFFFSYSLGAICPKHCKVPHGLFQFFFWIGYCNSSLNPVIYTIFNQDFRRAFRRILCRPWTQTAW
UniProt Q6P2M8, sequence (whole entry, looked up): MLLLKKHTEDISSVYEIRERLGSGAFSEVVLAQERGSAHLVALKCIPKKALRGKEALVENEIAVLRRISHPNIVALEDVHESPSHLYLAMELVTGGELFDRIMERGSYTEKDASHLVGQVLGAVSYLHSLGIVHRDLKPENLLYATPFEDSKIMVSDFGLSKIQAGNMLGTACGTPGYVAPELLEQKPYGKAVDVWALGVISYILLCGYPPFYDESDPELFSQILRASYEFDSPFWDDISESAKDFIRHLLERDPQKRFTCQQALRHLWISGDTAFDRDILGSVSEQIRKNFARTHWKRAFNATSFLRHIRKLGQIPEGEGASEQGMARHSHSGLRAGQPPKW
UniProt Q16832, sequence (whole entry, looked up): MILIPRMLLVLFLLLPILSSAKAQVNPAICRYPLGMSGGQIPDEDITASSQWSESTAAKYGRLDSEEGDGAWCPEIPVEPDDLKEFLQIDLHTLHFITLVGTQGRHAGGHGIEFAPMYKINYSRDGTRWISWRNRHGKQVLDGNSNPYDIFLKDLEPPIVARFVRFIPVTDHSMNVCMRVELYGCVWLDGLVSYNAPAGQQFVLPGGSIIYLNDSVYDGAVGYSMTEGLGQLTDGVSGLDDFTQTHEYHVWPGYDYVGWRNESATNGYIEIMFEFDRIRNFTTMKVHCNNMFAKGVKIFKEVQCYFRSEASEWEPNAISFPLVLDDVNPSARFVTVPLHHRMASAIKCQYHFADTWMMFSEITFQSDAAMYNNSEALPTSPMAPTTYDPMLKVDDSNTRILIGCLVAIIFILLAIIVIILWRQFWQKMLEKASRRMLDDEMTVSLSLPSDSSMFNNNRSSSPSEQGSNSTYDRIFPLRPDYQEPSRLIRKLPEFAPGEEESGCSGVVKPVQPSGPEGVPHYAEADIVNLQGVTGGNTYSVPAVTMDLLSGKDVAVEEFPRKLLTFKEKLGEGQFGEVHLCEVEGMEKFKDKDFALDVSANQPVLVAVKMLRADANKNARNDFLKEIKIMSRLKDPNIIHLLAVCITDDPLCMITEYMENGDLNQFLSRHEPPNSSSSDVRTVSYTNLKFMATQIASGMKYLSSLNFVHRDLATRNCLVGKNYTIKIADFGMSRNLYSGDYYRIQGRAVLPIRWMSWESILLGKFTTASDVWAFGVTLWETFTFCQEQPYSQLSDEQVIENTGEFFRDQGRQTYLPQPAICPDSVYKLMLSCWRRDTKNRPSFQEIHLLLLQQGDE
UniProt Q9HAZ1, sequence (whole entry, looked up): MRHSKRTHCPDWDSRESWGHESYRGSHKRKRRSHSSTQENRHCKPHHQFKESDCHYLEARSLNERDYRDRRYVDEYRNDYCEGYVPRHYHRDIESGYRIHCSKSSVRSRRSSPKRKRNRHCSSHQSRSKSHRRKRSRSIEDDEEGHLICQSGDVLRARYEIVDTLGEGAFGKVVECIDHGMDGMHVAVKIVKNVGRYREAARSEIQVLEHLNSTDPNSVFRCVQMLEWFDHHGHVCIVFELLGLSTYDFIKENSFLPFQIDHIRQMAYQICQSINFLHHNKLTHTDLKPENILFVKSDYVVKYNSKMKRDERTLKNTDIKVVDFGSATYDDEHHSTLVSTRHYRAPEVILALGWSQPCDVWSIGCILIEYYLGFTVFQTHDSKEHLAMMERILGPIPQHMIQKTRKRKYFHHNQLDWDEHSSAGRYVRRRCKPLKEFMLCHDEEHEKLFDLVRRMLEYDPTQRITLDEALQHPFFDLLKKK
UniProt Q16539, sequence (whole entry, looked up): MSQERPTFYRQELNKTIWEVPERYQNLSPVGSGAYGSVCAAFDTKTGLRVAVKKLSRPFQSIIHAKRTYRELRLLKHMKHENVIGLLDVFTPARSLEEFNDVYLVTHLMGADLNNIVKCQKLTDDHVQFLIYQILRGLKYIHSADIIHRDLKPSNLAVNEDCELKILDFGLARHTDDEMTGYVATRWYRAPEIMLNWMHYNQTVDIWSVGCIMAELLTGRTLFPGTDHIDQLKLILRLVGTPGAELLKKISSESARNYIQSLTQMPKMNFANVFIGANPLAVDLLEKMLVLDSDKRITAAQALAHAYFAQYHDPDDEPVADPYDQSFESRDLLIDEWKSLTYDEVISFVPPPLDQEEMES
UniProt P51956, sequence (whole entry, looked up): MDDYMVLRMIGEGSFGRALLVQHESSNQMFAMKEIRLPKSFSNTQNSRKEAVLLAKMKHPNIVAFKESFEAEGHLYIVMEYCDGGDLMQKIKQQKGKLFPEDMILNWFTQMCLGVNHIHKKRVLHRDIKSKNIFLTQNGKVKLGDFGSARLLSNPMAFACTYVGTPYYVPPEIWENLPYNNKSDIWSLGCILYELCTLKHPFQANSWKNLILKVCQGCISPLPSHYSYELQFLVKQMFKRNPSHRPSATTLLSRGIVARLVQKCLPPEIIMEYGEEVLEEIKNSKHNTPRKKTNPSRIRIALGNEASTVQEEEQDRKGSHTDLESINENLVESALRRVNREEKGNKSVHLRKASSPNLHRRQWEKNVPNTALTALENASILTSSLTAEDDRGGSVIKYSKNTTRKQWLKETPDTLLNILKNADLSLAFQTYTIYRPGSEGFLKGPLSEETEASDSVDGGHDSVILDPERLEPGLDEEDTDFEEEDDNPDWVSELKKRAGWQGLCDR
UniProt P14416, sequence (whole entry, looked up): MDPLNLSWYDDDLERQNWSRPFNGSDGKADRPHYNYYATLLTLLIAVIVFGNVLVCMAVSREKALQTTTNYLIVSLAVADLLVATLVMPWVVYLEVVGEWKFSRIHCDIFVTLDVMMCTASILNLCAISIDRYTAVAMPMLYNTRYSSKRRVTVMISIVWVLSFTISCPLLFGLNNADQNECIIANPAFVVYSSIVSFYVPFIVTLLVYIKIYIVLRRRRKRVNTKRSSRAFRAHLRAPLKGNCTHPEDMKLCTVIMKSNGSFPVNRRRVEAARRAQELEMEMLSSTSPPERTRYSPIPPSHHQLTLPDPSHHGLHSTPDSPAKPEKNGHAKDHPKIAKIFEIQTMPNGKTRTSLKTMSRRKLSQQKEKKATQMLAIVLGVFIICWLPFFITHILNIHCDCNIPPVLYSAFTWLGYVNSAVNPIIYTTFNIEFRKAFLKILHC
UniProt P28482, sequence (whole entry, looked up): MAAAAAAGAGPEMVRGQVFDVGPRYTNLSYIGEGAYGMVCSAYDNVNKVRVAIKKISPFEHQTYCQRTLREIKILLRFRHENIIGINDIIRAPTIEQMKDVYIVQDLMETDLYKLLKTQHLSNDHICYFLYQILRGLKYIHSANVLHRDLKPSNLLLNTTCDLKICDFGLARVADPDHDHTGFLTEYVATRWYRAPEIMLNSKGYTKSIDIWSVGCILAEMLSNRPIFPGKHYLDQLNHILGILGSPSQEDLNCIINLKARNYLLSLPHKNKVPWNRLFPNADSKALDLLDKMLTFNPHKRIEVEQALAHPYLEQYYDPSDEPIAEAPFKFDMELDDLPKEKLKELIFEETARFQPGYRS

Block 1
Species: mouse
Matrix: microsomes or S9
Tested at: 2 µM
Time: 0.5 h
`Clc1ccccc1C1(c2ccnc(Cn3cncn3)n2)CCNCC1` has a remaining compound of 44.4%.
`Cn1nnnc1NC(=O)c1ccc(C(F)(F)F)nc1N1CCC(C#N)(c2ccccc2)CC1` has a remaining compound of 81.4%.
With `CC(=O)c1c(Nc2ccc(C)cc2Cl)[nH]c2c(F)ccc(C)c2c1=O` the remaining compound was 0.0469%.
`Nc1cccc(COc2cc(Cl)c(Cl)cc2Cl)c1` has a remaining compound of 69.6%.
For `CC(Cc1nc2c(s1)Cc1ccccc1-2)n1cc(Cl)cn1` (centres unmarked), the remaining compound was 0.0197%.
`CC(NS(=O)(=O)c1ccc(S(=O)(=O)NC2CCCCC2C)cc1)c1ccc(F)cc1` (centres unmarked) has a remaining compound of 0.844%.
The remaining compound of `O=c1c2c3nc4ccccc4nc3n(Cc3ccc4c(c3)OCO4)c2ncn1Cc1ccco1` is reported as 1.75%.
`CCN(CC(O)COc1ccccc1)C(=O)c1cccc(-c2ccc(O)cc2)c1` (centres unmarked) gave a remaining compound of 52.9%.
With `CCC(CN1CCN(C)CC1)NC(=O)Cc1csc(Nc2ccccc2F)n1` (centres unmarked) the remaining compound was 62%.
For `Cc1ccc(C#N)c(NC(C)Cc2c(C)noc2C)n1` (centres unmarked), the remaining compound was 0.0127%.

Block 2
SMILES: Cc1ccc(S(=O)(=O)/C=C/C#N)cc1
Effect on: enzyme activity
Action: inhibitor
Tested at: 0.5 µM
Baseline: control
The remaining activity was 107% (PNCK (Homo sapiens, UniProt Q6P2M8)).
The remaining activity was 84% (MARK2 (Homo sapiens, UniProt Q7KZI7)).
The remaining activity was 108% (NEK3 (Homo sapiens, UniProt P51956)).
The remaining activity was 94.9% (AKT2 (Homo sapiens, UniProt P31751)).
The remaining activity was 82.8% (RPS6KA4 (Homo sapiens, UniProt O75676)).
The remaining activity was 89.7% (CLK4 (Homo sapiens, UniProt Q9HAZ1)).
CDC42BPB (Homo sapiens, UniProt Q9Y5S2) — remaining activity: 96.4%.
For MAPK1 (Homo sapiens, UniProt P28482): remaining activity read 100%.
MAP2K1 (Homo sapiens, UniProt Q02750) — remaining activity: 93.9%.
The remaining activity was 97.4% (MAPK14 (Homo sapiens, UniProt Q16539)).
For DDR2 (Homo sapiens, UniProt Q16832): remaining activity read 96.4%.
PRKG2 (Homo sapiens, UniProt Q13237) — remaining activity: 102%.
For DCLK2 (Homo sapiens, UniProt Q8N568): remaining activity read 96.1%.

Block 3
Structure (SMILES): N#Cc1ccc(Nc2ccc3[nH]c(=O)[nH]c3c2)c(Cl)c1
Effect on: cell-free assay
Tested at: 10 µM
It gave 2.09% for inhibition (ADRA2A (Homo sapiens, UniProt P08913)).
The inhibition was -18.9% (DRD2 (Homo sapiens, UniProt P14416)).
DRD1 (Homo sapiens, UniProt P21728) — inhibition: -7.86%.
The inhibition was 13.1% (ADRA2B (Homo sapiens, UniProt P18089)).
ADRB1 (Homo sapiens, UniProt P08588) — inhibition: 4.98%.
The inhibition was 8.47% (HRH3 (Homo sapiens, UniProt Q9Y5N1)).

Block 4
SMILES: COc1cc(C(=O)N2CCC(N3CCN(C)CC3)CC2)ccc1Nc1ncc2c(n1)N(C)c1ccccc1C(=O)N2C
For RSKL1 domain 1 (mouse); probe labelling, inhibitor, KiNativ ActivX ADP probe; mouse brain lysate; 0.1 µM, kinase domain peptide: inhibition read 9%.
mouse mTOR; probe labelling, KiNativ ATP probe; mouse brain lysate; 0.1 µM, ATP site — inhibition: 1%.
PIP4K2C (mouse); KiNativ ATP probe; mouse brain tissue; 1 µM, ATP site probe — inhibition: 4.9%.
It gave 10.6% for inhibition (CaMK2a (mouse); probe labelling, KiNativ, measured: Lys1 site peptide; brain tissue lysate (mouse); 0.1 µM, together with: ATP acyl-phosphate probe).
For NDR2 (mouse); probe labelling, KiNativ, measured: DTGHIYAMkILR peptide, LYS1 site; brain tissue lysate (mouse); 1 µM, together with: ADP acyl-phosphate probe: inhibition read -0.4%.
For mouse JNK1/JNK2/JNK3; probe labelling, KiNativ ADP probe; mouse brain lysate; 1 µM, LYS2 site DLkPSNIVVK: inhibition read -7.4%.
MAP2K4 (mouse); probe labelling, KiNativ, measured: DIkPSNILLDR peptide, LYS2 site; brain tissue lysate (mouse); 0.1 µM, together with: ATP acyl-phosphate probe — inhibition: -0.8%.
Dual specificity mitogen-activated protein kinase kinase 7 (Map2k7, Mus musculus, UniProt Q8CE90); probe labelling, KiNativ, measured: DVkPSNILLDER peptide, Lys2 site; brain tissue lysate (mouse); 0.1 µM, together with: ATP acyl-phosphate probe — inhibition: -9.6%.
It gave 13.9% for inhibition (BARK1 and BARK2 mouse; KiNativ profiling; mouse brain lysate; 1 µM, LYS1 site, together with: ADP acyl phosphate probe).
The inhibition was 4.3% (BTK human; KiNativ profiling; human PBMC; concentration not given, activation loop site, together with: ATP acyl phosphate probe).
The inhibition was -7.2% (RSKL1 domain 1 (mouse); probe labelling, inhibitor, KiNativ ActivX ATP probe; mouse brain lysate; 1 µM, kinase domain peptide).
It gave 0% for inhibition (SYK human; KiNativ profiling; human PBMC; 0.1 µM, LYS1 site, together with: ADP acyl phosphate probe).

For quick reference, copied from above (block 2):
CDC42BPB (Homo sapiens, UniProt Q9Y5S2) — remaining activity: 96.4%.
For DDR2 (Homo sapiens, UniProt Q16832): remaining activity read 96.4%.
The remaining activity was 97.4% (MAPK14 (Homo sapiens, UniProt Q16539)).
The remaining activity was 94.9% (AKT2 (Homo sapiens, UniProt P31751)).
